Experimental data from different studies.
Protocols differ between the studies behind these lines. ± marks the error that the study gave.

CC(=O)N[C@@H](Cc1ccc(O)cc1)CN(CC(=O)N[C@@H](CCCCN)CN(CC(=O)N[C@@H](Cc1ccccc1)CN(CC(=O)N[C@H]1CCCCNc2c(F)c(F)c(c(F)c2F)S(=O)(=O)c2c(F)c(F)c(c(F)c2F)NCCCC[C@@H](CN(CC(=O)N[C@@H](C)CN(CC(N)=O)S(=O)(=O)Cc2ccccc2)S(C)(=O)=O)NC(=O)CN(S(=O)(=O)CC(C)C)C[C@H](CC(C)C)NC(=O)CN(S(=O)(=O)CCN)C1)S(=O)(=O)CC(C)C)S(=O)(=O)CCN)S(C)(=O)=O  IC50 (CREB; reporter gene, inhibitor, CRE Renilla luciferase; HEK-293T; 30 min, added: forskolin 10 µM for 5 h): 43.1 ± 19.8 µM
O=C(O)c1ccccc1-c1c2ccc(=O)cc-2oc2cc(O)ccc12  IC50 (reconstituted human ubiquitination cascade; PCNA ubiquitination, inhibitor, AlphaScreen): > 100 µM
COc1cc2ncnc(Nc3ccc(Oc4ccccc4)c(C)c3C)c2cc1OC  IC50 (ERK1; ATP-biotin probe binding, inhibitor, probe-labelling competition): > 10 µM
C[C@H](N)C(=O)N[C@@H](C)C(=O)O  IC50 (PepTSt Streptococcus thermophilus wild type; peptide uptake, competitor, proteoliposome uptake): 30 ± 10 µM
CC(=O)N[C@@H](Cc1ccc(O)cc1)CN(CC(=O)N[C@@H](CCCCN)CN(CC(=O)N[C@@H](Cc1ccccc1)CN(CC(=O)N[C@H]1CCCCNc2c(F)c(F)c(c(F)c2F)S(=O)(=O)c2c(F)c(F)c(c(F)c2F)NCCCC[C@@H](CN(CC(=O)N[C@@H](C)CN(CC(N)=O)S(C)(=O)=O)S(C)(=O)=O)NC(=O)CN(S(=O)(=O)CC(C)C)C[C@H](Cc2ccccc2)NC(=O)CN(S(=O)(=O)CCN)C1)S(=O)(=O)c1ccc(Cl)cc1)S(=O)(=O)CCN)S(C)(=O)=O  IC50 (CREB; reporter gene, inhibitor, CRE Renilla luciferase; HEK-293T; 30 min, added: forskolin 10 µM for 5 h): 18.9 µM
COc1cc2ncnc(Nc3ccc(Oc4ccccc4)cc3C)c2cc1OC  IC50 (ERK1; ATP-biotin probe binding, inhibitor, probe-labelling competition): > 10 µM
O=C(O)C1OC(OC2C(COS(=O)(=O)O)OC(OC3C(C(=O)O)OC(OC4C(COS(=O)(=O)O)OC(OC5C(C(=O)O)OC(OC6C(COS(=O)(=O)O)OC(OC7C(C(=O)O)OC(OC8C(COS(=O)(=O)O)OC(OC9C(C(=O)O)OC(OC%10C(COS(=O)(=O)O)OC(OC%11C(C(=O)O)OC(Oc%12ccc([N+](=O)[O-])cc%12)C(O)C%11O)C(NS(=O)(=O)O)C%10O)C(OS(=O)(=O)O)C9O)C(NS(=O)(=O)O)C8O)C(OS(=O)(=O)O)C7O)C(NS(=O)(=O)O)C6O)C(OS(=O)(=O)O)C5O)C(NS(=O)(=O)O)C4O)C(OS(=O)(=O)O)C3O)C(NS(=O)(=O)O)C2OS(=O)(=O)O)C(O)C(O)C1OC1OC(COS(=O)(=O)O)C(O)C(O)C1NS(=O)(=O)O (centres unmarked)  IC50 (human factor Xa; anti-factor Xa activity, chromogenic; human plasma): 57 ng/mL
CC(=O)N[C@@H](Cc1ccc(O)cc1)CN(CC(=O)N[C@@H](CCCCN)CN(CC(=O)N[C@@H](Cc1ccccc1)CN(CC(=O)N[C@H]1CCCCNc2c(F)c(F)c(c(F)c2F)S(=O)(=O)c2c(F)c(F)c(c(F)c2F)NCCCC[C@@H](CN(CC(=O)N[C@@H](C)CN(CC(N)=O)S(C)(=O)=O)S(C)(=O)=O)NC(=O)CN(S(=O)(=O)c2ccccc2)C[C@H](Cc2ccccc2)NC(=O)CN(S(=O)(=O)CCN)C1)S(=O)(=O)CC(C)C)S(=O)(=O)CCN)S(C)(=O)=O  IC50 (CREB; reporter gene, inhibitor, CRE Renilla luciferase; HEK-293T; 30 min, added: forskolin 10 µM for 5 h): 68.9 ± 25.9 µM
CSCC[C@H](N)C(=O)N[C@@H](CO)C(=O)N[C@@H](CCC(N)=O)C(=O)N[C@@H](CO)C(=O)N[C@@H](CC(N)=O)C(=O)N[C@@H](CCCNC(=N)N)C(=O)N[C@@H](CCC(=O)O)C(=O)N[C@@H](CC(C)C)C(=O)N[C@H](C(=O)N[C@H](C(=O)N[C@@H](CC(=O)O)C(=O)N[C@@H](Cc1ccccc1)C(=O)N[C@@H](CC(C)C)C(=O)N[C@@H](CO)C(=O)N[C@@H](Cc1ccc(O)cc1)C(=O)N[C@@H](CCCCN)C(=O)N[C@@H](CC(C)C)C(=O)N[C@@H](CO)C(=O)N[C@@H](CCC(N)=O)C(=O)N[C@@H](CCCCN)C(=O)NCC(=O)N[C@@H](Cc1ccc(O)cc1)C(=O)N[C@@H](CO)C(=O)N[C@@H](Cc1c[nH]c2ccccc12)C(=O)O)C(C)C)C(C)C  IC50 (IP3 receptor (mouse); IP3-induced Ca2+ release, inhibitor, 45Ca2+ flux; permeabilized MEF cells; 4 min preincubation, 30 °C, added: 3 µM IP3): > 500 µM
N=C(NCCCN(CCNC(=O)NCc1ccccc1)C[C@H]1O[C@@H](n2cnc3c(N)ncnc32)[C@H](O)[C@@H]1O)Nc1cccc(Br)c1  IC50 (type I PRMTs; enzyme activity, inhibitor, radioactive): < 0.005 µM
CSCC[C@H](N)C(=O)N[C@@H](CO)C(=O)N[C@@H](CCC(N)=O)C(=O)N[C@@H](CO)C(=O)N[C@@H](CC(N)=O)C(=O)N[C@@H](CCCNC(=N)N)C(=O)N[C@@H](CCC(=O)O)C(=O)N[C@@H](CC(C)C)C(=O)N[C@H](C(=O)N[C@H](C(=O)N[C@@H](CCCCN)C(=O)N[C@@H](Cc1ccccc1)C(=O)N[C@@H](CC(C)C)C(=O)N[C@@H](CO)C(=O)N[C@@H](Cc1ccc(O)cc1)C(=O)N[C@@H](CCCCN)C(=O)N[C@@H](CC(C)C)C(=O)N[C@@H](CO)C(=O)N[C@@H](CCC(N)=O)C(=O)N[C@@H](CCCCN)C(=O)NCC(=O)N[C@@H](Cc1ccc(O)cc1)C(=O)N[C@@H](CO)C(=O)N[C@@H](Cc1c[nH]c2ccccc12)C(=O)O)C(C)C)C(C)C  IC50 (IP3 receptor (mouse); IP3-induced Ca2+ release, inhibitor, 45Ca2+ flux; permeabilized MEF cells; 4 min preincubation, 30 °C, added: 3 µM IP3): 60 µM
Cc1cc(N2CC[C@@](C#N)(C3(C)CC3)C2=O)cc(C(=O)NCc2cc(F)cc(-c3cnn(C)c3)c2)n1  IC50 (GABAA receptor; promiscuity panel): > 10 µM
CC(C)C[C@@H](/C=C/S(C)(=O)=O)NC(=O)[C@H](CC(C)C)NC(=O)[C@@H](NC(=O)N[C@H](C(=O)OC(C)(C)C)C(C)C)C(C)C  IC50 (rabbit 26S proteasome beta2; trypsin-like activity; 30 min, 37 °C, added: Ac-RLR-AMC): > 30 µM
CC(=O)N[C@@H](Cc1ccc(O)cc1)CN(CC(=O)N[C@@H](CCCCN)CN(CC(=O)N[C@@H](Cc1ccccc1)CN(CC(=O)N[C@H]1CCCCNc2c(F)c(F)c(c(F)c2F)S(=O)(=O)c2c(F)c(F)c(c(F)c2F)NCCCC[C@@H](CN(CC(=O)N[C@@H](C)CN(CC(N)=O)S(C)(=O)=O)S(C)(=O)=O)NC(=O)CN(S(=O)(=O)c2ccc(Cl)cc2)C[C@H](Cc2ccccc2)NC(=O)CN(S(=O)(=O)CCN)C1)S(=O)(=O)CC(C)C)S(=O)(=O)CCN)S(C)(=O)=O  IC50 (CREB; reporter gene, inhibitor, CRE Renilla luciferase; HEK-293T; 30 min, added: forskolin 10 µM for 5 h): 80.3 ± 13.2 µM
N[C@@H](CCC(=O)O)C(=O)N[C@@H](CCC(=O)O)C(=O)O  IC50 (PepTSt Streptococcus thermophilus wild type; peptide uptake, competitor, proteoliposome uptake; added: [3H]di-alanine): 560 µM
CC(=O)N[C@@H](Cc1ccc(O)cc1)CN(CC(=O)N[C@@H](CCCCN)CN(CC(=O)N[C@@H](Cc1ccccc1)CN(CC(=O)N[C@H]1CCCCNc2c(F)c(F)c(c(F)c2F)S(=O)(=O)c2c(F)c(F)c(c(F)c2F)NCCCC[C@@H](CN(CC(=O)N[C@@H](C)CN(CC(N)=O)S(C)(=O)=O)S(C)(=O)=O)NC(=O)CN(S(=O)(=O)Cc2ccccc2)C[C@H](CC(C)C)NC(=O)CN(S(=O)(=O)CCN)C1)S(=O)(=O)CC(C)C)S(=O)(=O)CCN)S(C)(=O)=O  IC50 (CREB; reporter gene, inhibitor, CRE Renilla luciferase; HEK-293T; 30 min, added: forskolin 10 µM for 5 h): 32.5 ± 8.47 µM
CC(C)=CCN=C(N)NCCC[C@@H](NC(=O)CCCc1ccc(O)cc1)C(=O)N[C@@H](Cc1ccccc1)C(O)CC(=O)N[C@@H](Cc1ccc(O)cc1)C(=O)O (stereo in doubt)  IC50 (calpain; enzyme activity): > 100 µM
